Results pooled from the literature.
Each line is one published result; not all experiments were run side by side. Numbers after ± are the reported error.
Chain of UniProt O96017 (whole entry, looked up): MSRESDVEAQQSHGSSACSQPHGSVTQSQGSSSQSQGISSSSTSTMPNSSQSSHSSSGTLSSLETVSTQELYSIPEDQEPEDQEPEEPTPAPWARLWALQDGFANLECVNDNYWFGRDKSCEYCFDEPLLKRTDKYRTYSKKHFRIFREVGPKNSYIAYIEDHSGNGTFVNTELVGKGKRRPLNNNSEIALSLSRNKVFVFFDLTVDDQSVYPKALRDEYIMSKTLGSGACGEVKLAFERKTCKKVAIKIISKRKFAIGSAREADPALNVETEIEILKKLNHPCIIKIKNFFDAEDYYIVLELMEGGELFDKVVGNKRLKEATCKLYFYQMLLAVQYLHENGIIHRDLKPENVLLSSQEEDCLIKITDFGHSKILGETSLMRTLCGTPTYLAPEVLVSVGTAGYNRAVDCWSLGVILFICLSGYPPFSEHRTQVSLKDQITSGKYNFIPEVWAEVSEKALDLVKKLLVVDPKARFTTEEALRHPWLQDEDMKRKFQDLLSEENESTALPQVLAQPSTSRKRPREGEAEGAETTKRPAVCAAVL
Chain of UniProt P21729 (whole entry, looked up): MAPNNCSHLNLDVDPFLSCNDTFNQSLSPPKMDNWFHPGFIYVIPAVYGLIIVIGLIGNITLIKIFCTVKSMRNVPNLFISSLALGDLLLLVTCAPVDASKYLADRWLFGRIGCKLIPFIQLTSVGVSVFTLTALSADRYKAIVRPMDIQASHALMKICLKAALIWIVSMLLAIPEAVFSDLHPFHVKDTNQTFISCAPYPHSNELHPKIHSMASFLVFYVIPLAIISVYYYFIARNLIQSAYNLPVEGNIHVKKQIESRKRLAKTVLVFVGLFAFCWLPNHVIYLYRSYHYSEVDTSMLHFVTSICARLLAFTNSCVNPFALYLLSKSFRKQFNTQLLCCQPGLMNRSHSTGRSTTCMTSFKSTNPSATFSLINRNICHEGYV
Chain of UniProt Q15858 (whole entry, looked up): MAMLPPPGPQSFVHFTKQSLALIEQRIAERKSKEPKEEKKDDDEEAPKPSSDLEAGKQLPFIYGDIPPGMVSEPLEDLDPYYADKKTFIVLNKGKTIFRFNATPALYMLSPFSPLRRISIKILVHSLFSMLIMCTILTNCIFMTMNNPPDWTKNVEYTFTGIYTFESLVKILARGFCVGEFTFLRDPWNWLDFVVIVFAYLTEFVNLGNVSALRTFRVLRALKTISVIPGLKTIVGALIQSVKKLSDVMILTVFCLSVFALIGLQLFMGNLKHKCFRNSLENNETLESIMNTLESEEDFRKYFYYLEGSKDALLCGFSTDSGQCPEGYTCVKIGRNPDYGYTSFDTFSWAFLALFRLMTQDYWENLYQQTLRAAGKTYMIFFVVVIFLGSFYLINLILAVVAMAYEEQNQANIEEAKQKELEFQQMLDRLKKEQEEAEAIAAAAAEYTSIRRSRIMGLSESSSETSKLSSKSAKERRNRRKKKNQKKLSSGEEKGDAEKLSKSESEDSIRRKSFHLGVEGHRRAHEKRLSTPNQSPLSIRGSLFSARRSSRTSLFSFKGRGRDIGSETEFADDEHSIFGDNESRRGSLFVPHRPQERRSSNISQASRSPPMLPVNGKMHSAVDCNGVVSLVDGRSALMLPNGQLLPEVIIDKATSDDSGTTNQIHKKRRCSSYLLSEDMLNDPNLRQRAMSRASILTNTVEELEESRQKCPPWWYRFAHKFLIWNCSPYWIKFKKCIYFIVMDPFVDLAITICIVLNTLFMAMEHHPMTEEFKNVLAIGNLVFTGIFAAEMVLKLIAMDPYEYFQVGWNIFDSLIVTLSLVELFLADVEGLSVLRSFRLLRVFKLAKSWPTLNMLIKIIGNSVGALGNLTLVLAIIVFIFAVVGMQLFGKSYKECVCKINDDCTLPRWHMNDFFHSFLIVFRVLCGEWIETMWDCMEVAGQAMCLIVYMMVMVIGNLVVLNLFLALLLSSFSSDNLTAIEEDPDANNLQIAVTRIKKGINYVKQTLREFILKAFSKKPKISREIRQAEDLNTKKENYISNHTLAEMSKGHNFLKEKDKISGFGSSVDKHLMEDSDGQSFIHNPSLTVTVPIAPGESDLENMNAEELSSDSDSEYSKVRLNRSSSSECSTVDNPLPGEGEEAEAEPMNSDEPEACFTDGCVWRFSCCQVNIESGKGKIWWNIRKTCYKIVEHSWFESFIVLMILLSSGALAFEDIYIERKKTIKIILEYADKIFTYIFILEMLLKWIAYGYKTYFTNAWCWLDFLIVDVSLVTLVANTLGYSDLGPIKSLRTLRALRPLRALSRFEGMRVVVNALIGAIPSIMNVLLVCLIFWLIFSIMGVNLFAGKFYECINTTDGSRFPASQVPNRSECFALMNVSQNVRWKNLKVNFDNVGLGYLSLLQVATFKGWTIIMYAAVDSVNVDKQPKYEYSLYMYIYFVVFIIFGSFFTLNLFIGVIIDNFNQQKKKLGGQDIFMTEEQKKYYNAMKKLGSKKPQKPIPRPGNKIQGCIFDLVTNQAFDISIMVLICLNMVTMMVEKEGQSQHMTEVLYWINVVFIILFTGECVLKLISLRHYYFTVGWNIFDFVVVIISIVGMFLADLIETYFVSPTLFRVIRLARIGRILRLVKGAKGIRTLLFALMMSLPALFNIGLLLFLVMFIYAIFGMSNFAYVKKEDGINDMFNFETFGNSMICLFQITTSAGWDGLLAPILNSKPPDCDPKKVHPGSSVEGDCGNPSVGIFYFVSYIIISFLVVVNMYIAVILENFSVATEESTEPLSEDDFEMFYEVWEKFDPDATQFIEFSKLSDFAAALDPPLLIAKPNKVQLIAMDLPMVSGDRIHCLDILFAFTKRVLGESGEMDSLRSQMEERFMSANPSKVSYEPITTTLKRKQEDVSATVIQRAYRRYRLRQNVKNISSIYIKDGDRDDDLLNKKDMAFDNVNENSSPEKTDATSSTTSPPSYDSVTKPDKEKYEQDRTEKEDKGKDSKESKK

CC(=O)NC(Cc1ccc(Br)c(Cl)c1)C(=O)N[C@@H](C)C(=O)N1CCC[C@H]1C(=O)N1CCC[C@H]1C(=O)N[C@@H](CCC(=O)O)C(=O)N[C@@H](Cc1c[nH]cn1)C(=O)N[C@@H](CO)C(=O)N[C@H](C(=O)N[C@@H](C)C(N)=O)[C@@H](C)OP(=O)(O)O (stereo partly drawn) gave an inhibition of 0.07% (CHEK2 (Homo sapiens, UniProt O96017); enzyme activity, inhibitor; 10 µM).
O=C(O)CCC(NP(=O)(O)OCCC[C@@H](NC(=O)CCC(NC(=O)c1ccc([18F])cc1)C(=O)O)C(=O)O)C(=O)O (stereo partly drawn) has a tracer uptake of 9.97 %ID/g (CWR22Rv1 tumour model; host not given, kidney; intravenous, 2 h, tumour-bearing).
COC(=O)C1=CO[C@@H](OC(C)=O)[C@@H]2C(Cn3cc(CCBr)nn3)=CC[C@H]12 has a viability of 80.9 ± 0.4% (SK-N-SH; neuroprotection, MTT; 0.075 µM, 24 h, added: 250 µM H2O2).
For Cc1ncsc1-c1ccc(CNC(=O)[C@@H]2C[C@@H](OC(=O)OCCSSCCn3cc(CCCC(=O)N[C@@H](Cc4ccc(O)cc4)C(=O)N[C@@H](CCCNC(=N)N)C(=O)N[C@@H](CCCNC(=N)N)C(=O)N[C@@H](CCCNC(=N)N)C(=O)N[C@@H](CCCNC(=N)N)C(=O)N[C@@H](CCCNC(=N)N)C(=O)N[C@@H](CCCNC(=N)N)C(=O)N[C@@H](CCCNC(=N)N)C(=O)N[C@@H](CCCNC(=N)N)C(=O)N[C@@H](CCCNC(=N)N)C(N)=O)nn3)CN2C(=O)[C@@H](NC(=O)COCCOCCOCCNC(=O)C[C@@H]2N=C(c3ccc(Cl)cc3)c3c(sc(C)c3C)-n3c(C)nnc32)C(C)(C)C)cc1, the released payload was 100% (UHPLC; PBS; 100 nM, 2 h, 37 °C, added: 5 mM glutathione; baseline: total peak area).
With CSCC[C@H](NC(=O)[C@H](CC(C)C)NC(=O)[C@H](Cc1c[nH]cn1)NC(=O)CNC(=O)[C@@H](NC(=O)[C@H](C)NC(=O)[C@H](Cc1c[nH]c2ccccc12)NC(=O)[C@H](CCC(N)=O)NC(=O)CCCCCNC(=O)CNC(=O)CNC(=O)CNC(=O)CSC(C)=O)C(C)C)C(N)=O [technetium-99m labelled] the tissue uptake was 0.04 ± 0.02 %ID/g (Swiss mouse, heart; intravenous, 18.5 MBq, 240 min).
With N=C(N)NCCC[C@@H]1NC(=O)[C@H](CCCCNC(=O)CCOCCOCCOCCOCCNC(=O)CC[C@H](NC(=O)CCOCCOCCOCCOCCNC(=O)c2ccc(NN)nc2)C(=O)NCCOCCOCCOCCOCCC(=O)NCCCC[C@@H]2NC(=O)[C@@H](Cc3ccccc3)NC(=O)[C@H](CC(=O)O)NC(=O)CNC(=O)[C@H](CCCNC(=N)N)NC2=O)NC(=O)[C@@H](Cc2ccccc2)NC(=O)[C@H](CC(=O)O)NC(=O)CNC1=O [technetium-99m labelled] the logP was -4.35 ± 0.1 (shake-flask octanol/buffer; pH 7.4).
With CSCC[C@H](NC(=O)[C@H](CC(C)C)NC(=O)[C@H](Cc1c[nH]cn1)NC(=O)CNC(=O)[C@@H](NC(=O)[C@H](C)NC(=O)[C@H](Cc1c[nH]c2ccccc12)NC(=O)[C@H](CCC(N)=O)NC(=O)CCCCNC(=O)CSCCSCCP(CO)CO)C(C)C)C(N)=O [technetium-99m labelled] the excreted dose was 52.8% (CF-1 mouse, female, faeces; intravenous, dose not given, 24 h).
For CC(C)C[C@H](NC(=O)[C@@H]1CCCN1C(=O)[C@H](CCCCN)NC(=O)[C@@H](N)CO)C(=O)N1CCC[C@H]1C(=O)N[C@@H](CCC(=O)O)C(=O)N[C@H](C(=O)N[C@H](C(=O)N[C@@H](CC(=O)O)C(=O)N[C@@H](CCC(=O)O)C(=O)N[C@@H](Cc1ccc(O)cc1)C(=O)N[C@@H](Cc1cn(CCOCCOCCOCCNC(=O)CCc2ccc(O)c(CN(CCN(CC(=O)O)Cc3cc(CCC(=O)NCCCC[C@H](NC(=O)N[C@@H](CCC(=O)O)C(=O)O)C(=O)O)ccc3O)CC(=O)O)c2)nn1)C(=O)O)[C@@H](C)O)C(C)C [gallium-68 labelled], “standardized uptake value” read 0.04 g/g (NMRI nu/nu mice, LNCaP tumour, muscle; 10 MBq, high molar activity).
CCCC[C@H](NC(=O)CNC(=O)[C@H](CO)NC(=O)CNC(=O)c1ccc(NN)nc1)C(=O)N[C@H]1CC(=O)NCCCC[C@@H](C(N)=O)NC(=O)[C@H](Cc2c[nH]c3ccccc23)NC(=O)[C@H](CCCNC(=N)N)NC(=O)[C@@H](Cc2ccccc2)NC(=O)[C@H](Cc2c[nH]cn2)NC1=O [technetium-99m labelled] has an uptake of 0.22 ± 0.06 %ID/g (C57 mouse, B16/F1 melanoma, skin; intravenous, 2 h).
The tissue uptake of CCCNC(=O)[C@H](CC(C)C)NC(=O)[C@H](Cc1c[nH]cn1)NC(=O)CNC(=O)[C@@H](NC(=O)[C@H](C)NC(=O)[C@H](Cc1c[nH]c2ccccc12)NC(=O)[C@H](CCC(N)=O)NC(=O)[C@@H](Cc1ccccc1)NC(=O)CCCCCNC(=O)CN1CCN(CC(=O)O)CCN(CC(=O)O)CCN(CC(=O)O)CC1)C(C)C [indium-111 labelled] is reported as 0.02 %ID/g (Gastrin-releasing peptide receptor (Mus musculus, UniProt P21729); biodistribution; CF-1 mice, brain; intravenous, 1 h, added: bombesin 100 µg, blocking).
For CN(C)CC1CCCCC1(O)c1cccc(O)c1 (stereo not drawn), the Papp B→A was 16.4 ×10⁻⁶ cm/s (Caco-2; 1 µM, 3 h, pH 6.8).
Under “tumour to tissue ratio”, N=C(N)NCCC[C@@H]1NC(=O)[C@H](CCCCNC(=O)CNC(=O)CNC(=O)CNC(=O)CC[C@H](NC(=O)CCOCCOCCOCCOCCNC(=O)CC[C@H](NC(=O)CN2CCN(CC(=O)O)CCN(CC(=O)O)CCN(CC(=O)O)CC2)C(=O)NCCOCCOCCOCCOCCC(=O)N[C@@H](CCC(=O)NCC(=O)NCC(=O)NCC(=O)NCCCC[C@@H]2NC(=O)[C@@H](Cc3ccccc3)NC(=O)[C@H](CC(=O)O)NC(=O)CNC(=O)[C@H](CCCNC(=N)N)NC2=O)C(=O)NCC(=O)NCC(=O)NCC(=O)NCCCC[C@@H]2NC(=O)[C@@H](Cc3ccccc3)NC(=O)[C@H](CC(=O)O)NC(=O)CNC(=O)[C@H](CCCNC(=N)N)NC2=O)C(=O)NCC(=O)NCC(=O)NCC(=O)NCCCC[C@@H]2NC(=O)[C@@H](Cc3ccccc3)NC(=O)[C@H](CC(=O)O)NC(=O)CNC(=O)[C@H](CCCNC(=N)N)NC2=O)NC(=O)[C@@H](Cc2ccccc2)NC(=O)[C@H](CC(=O)O)NC(=O)CNC1=O [indium-111 labelled] is recorded as 2.68 ± 0.69 (athymic nude mice, female, U-87 MG glioma xenograft, tumour and lungs; intravenous, 0.5 h; baseline: tumour over lungs).
Under “pKa carboxylic acid”, CC(C)C[C@@H]1NC(=O)[C@H](C(C)C)NC(=O)[C@H](CO)NC(=O)CNC(=O)CNC(=O)[C@H](CCCNC(=N)N)NC(=O)[C@@H]2CCCN2C(=O)[C@@H](NC(=O)CC[C@H](NC(=O)c2ccc(N(C)Cc3cnc4nc(N)nc(N)c4n3)cc2)C(=O)O)C(C)(C)SSC[C@@H](C(=O)O)NC(=O)CNC(=O)[C@H]([C@@H](C)O)NC(=O)[C@H](C(C)C)NC1=O is recorded as 3.9 (pH-rate profile inflection; 70 °C).
CCCC[C@H](NC(=O)CNC(=O)CNC(=O)c1ccc(NN)nc1)C(=O)N[C@H]1CC(=O)NCCCC[C@@H](C(N)=O)NC(=O)[C@H](Cc2c[nH]c3ccccc23)NC(=O)[C@H](CCCNC(=N)N)NC(=O)[C@@H](Cc2ccccc2)NC(=O)[C@H](Cc2c[nH]cn2)NC1=O [technetium-99m labelled] has an uptake ratio of 40.3 (C57 mouse, B16/F1 melanoma; 2 h, added: L-lysine; baseline: tumour over liver).
Under “tumour to tissue ratio”, N=C(N)NCCC[C@@H]1NC(=O)[C@H](CCCCNC(=O)CCOCCOCCOCCOCCNC(=O)CN2CCN(CC(=O)O)CCN(CC(=O)O)CCN(CC(=O)O)CC2)NC(=O)[C@@H](Cc2ccccc2)NC(=O)[C@H](CC(=O)O)NC(=O)CNC1=O [indium-111 labelled] is recorded as 4.66 ± 1.02 (athymic nude mice, female, U-87 MG glioma xenograft, tumour and lungs; intravenous, 72 h; baseline: tumour over lungs).
CCCC[C@H](NC(=O)CCCCCCCNC(=O)c1ccc(NN)nc1)C(=O)N[C@H]1CC(=O)NCCCC[C@@H](C(N)=O)NC(=O)[C@H](Cc2c[nH]c3ccccc23)NC(=O)[C@H](CCCNC(=N)N)NC(=O)[C@@H](Cc2ccccc2)NC(=O)[C@H](Cc2c[nH]cn2)NC1=O [technetium-99m labelled] has a tissue uptake of 0.59 ± 0.06 %ID/g (C57 mouse, B16/F1 melanoma, lung; 2 h, added: L-lysine 12 mg co-injected).
For N=C(N)NCCC[C@@H]1NC(=O)[C@H](CCCCNC(=O)CC[C@H](NC(=O)CCOCCOCCOCCOCCNC(=O)CC[C@H](NC(=O)CN2CCN(CC(=O)O)CCN(CC(=O)O)CCN(CC(=O)O)CC2)C(=O)NCCOCCOCCOCCOCCC(=O)N[C@@H](CCC(=O)NCCCC[C@@H]2NC(=O)[C@@H](Cc3ccccc3)NC(=O)[C@H](CC(=O)O)NC(=O)CNC(=O)[C@H](CCCNC(=N)N)NC2=O)C(=O)NCCCC[C@@H]2NC(=O)[C@@H](Cc3ccccc3)NC(=O)[C@H](CC(=O)O)NC(=O)CNC(=O)[C@H](CCCNC(=N)N)NC2=O)C(=O)NCCCC[C@@H]2NC(=O)[C@@H](Cc3ccccc3)NC(=O)[C@H](CC(=O)O)NC(=O)CNC(=O)[C@H](CCCNC(=N)N)NC2=O)NC(=O)[C@@H](Cc2ccccc2)NC(=O)[C@H](CC(=O)O)NC(=O)CNC1=O [indium-111 labelled], “tumour to tissue ratio” read 4.31 ± 0.96 (athymic nude mice, female, U-87 MG glioma xenograft, tumour and lungs; intravenous, 1 h; baseline: tumour over lungs).
CCN(Cc1ccccc1)C(=O)CCc1nc(CN2CCN(C(=O)Cc3ccc(OC)c(OC)c3)CC2)no1: “V1/2 of activation” -35.8 ± 1.64 mV (SCN9A (Homo sapiens, UniProt Q15858); whole-cell patch clamp; HEK stable; 100 nM).

For quick reference, copied from above:
With CSCC[C@H](NC(=O)[C@H](CC(C)C)NC(=O)[C@H](Cc1c[nH]cn1)NC(=O)CNC(=O)[C@@H](NC(=O)[C@H](C)NC(=O)[C@H](Cc1c[nH]c2ccccc12)NC(=O)[C@H](CCC(N)=O)NC(=O)CCCCCNC(=O)CNC(=O)CNC(=O)CNC(=O)CSC(C)=O)C(C)C)C(N)=O [technetium-99m labelled] the tissue uptake was 0.04 ± 0.02 %ID/g (Swiss mouse, heart; intravenous, 18.5 MBq, 240 min).
With N=C(N)NCCC[C@@H]1NC(=O)[C@H](CCCCNC(=O)CCOCCOCCOCCOCCNC(=O)CC[C@H](NC(=O)CCOCCOCCOCCOCCNC(=O)c2ccc(NN)nc2)C(=O)NCCOCCOCCOCCOCCC(=O)NCCCC[C@@H]2NC(=O)[C@@H](Cc3ccccc3)NC(=O)[C@H](CC(=O)O)NC(=O)CNC(=O)[C@H](CCCNC(=N)N)NC2=O)NC(=O)[C@@H](Cc2ccccc2)NC(=O)[C@H](CC(=O)O)NC(=O)CNC1=O [technetium-99m labelled] the logP was -4.35 ± 0.1 (shake-flask octanol/buffer; pH 7.4).
With CSCC[C@H](NC(=O)[C@H](CC(C)C)NC(=O)[C@H](Cc1c[nH]cn1)NC(=O)CNC(=O)[C@@H](NC(=O)[C@H](C)NC(=O)[C@H](Cc1c[nH]c2ccccc12)NC(=O)[C@H](CCC(N)=O)NC(=O)CCCCNC(=O)CSCCSCCP(CO)CO)C(C)C)C(N)=O [technetium-99m labelled] the excreted dose was 52.8% (CF-1 mouse, female, faeces; intravenous, dose not given, 24 h).
